Measured values gathered from unrelated publications.
Every numbered part comes from another study and shows a few of its results, in no order. “And” joins repeats or separate records; there may be more than shown.
Chain of UniProt P57059 (whole entry, looked up): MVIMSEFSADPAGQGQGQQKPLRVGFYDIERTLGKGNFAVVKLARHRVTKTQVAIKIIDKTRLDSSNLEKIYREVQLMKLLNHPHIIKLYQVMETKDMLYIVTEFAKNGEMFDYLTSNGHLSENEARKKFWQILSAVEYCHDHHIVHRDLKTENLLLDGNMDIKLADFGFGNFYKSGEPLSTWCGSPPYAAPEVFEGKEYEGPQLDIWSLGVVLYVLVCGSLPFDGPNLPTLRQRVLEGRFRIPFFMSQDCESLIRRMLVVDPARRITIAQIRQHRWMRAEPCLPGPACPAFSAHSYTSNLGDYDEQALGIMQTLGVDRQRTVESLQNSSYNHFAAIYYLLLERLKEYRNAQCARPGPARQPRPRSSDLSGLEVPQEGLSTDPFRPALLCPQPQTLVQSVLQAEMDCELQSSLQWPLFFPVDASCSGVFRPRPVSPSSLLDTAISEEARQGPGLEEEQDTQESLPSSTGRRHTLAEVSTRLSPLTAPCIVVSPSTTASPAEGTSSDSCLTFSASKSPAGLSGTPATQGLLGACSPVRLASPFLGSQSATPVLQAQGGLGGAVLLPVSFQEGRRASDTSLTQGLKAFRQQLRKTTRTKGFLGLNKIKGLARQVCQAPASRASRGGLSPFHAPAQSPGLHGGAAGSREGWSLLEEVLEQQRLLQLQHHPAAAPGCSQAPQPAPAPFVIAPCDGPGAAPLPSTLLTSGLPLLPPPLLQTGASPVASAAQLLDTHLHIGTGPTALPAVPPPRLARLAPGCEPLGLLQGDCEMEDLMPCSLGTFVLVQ
Chain of UniProt Q9HC98 (whole entry, looked up): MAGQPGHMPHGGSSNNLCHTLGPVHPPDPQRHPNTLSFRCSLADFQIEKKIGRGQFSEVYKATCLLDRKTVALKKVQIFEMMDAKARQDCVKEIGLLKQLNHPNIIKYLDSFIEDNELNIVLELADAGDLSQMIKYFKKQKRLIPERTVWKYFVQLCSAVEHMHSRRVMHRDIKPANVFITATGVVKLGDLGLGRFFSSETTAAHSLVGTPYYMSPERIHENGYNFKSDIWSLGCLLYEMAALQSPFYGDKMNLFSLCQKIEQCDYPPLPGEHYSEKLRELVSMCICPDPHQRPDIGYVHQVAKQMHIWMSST
Chain of UniProt Q8NEV4 (whole entry, looked up): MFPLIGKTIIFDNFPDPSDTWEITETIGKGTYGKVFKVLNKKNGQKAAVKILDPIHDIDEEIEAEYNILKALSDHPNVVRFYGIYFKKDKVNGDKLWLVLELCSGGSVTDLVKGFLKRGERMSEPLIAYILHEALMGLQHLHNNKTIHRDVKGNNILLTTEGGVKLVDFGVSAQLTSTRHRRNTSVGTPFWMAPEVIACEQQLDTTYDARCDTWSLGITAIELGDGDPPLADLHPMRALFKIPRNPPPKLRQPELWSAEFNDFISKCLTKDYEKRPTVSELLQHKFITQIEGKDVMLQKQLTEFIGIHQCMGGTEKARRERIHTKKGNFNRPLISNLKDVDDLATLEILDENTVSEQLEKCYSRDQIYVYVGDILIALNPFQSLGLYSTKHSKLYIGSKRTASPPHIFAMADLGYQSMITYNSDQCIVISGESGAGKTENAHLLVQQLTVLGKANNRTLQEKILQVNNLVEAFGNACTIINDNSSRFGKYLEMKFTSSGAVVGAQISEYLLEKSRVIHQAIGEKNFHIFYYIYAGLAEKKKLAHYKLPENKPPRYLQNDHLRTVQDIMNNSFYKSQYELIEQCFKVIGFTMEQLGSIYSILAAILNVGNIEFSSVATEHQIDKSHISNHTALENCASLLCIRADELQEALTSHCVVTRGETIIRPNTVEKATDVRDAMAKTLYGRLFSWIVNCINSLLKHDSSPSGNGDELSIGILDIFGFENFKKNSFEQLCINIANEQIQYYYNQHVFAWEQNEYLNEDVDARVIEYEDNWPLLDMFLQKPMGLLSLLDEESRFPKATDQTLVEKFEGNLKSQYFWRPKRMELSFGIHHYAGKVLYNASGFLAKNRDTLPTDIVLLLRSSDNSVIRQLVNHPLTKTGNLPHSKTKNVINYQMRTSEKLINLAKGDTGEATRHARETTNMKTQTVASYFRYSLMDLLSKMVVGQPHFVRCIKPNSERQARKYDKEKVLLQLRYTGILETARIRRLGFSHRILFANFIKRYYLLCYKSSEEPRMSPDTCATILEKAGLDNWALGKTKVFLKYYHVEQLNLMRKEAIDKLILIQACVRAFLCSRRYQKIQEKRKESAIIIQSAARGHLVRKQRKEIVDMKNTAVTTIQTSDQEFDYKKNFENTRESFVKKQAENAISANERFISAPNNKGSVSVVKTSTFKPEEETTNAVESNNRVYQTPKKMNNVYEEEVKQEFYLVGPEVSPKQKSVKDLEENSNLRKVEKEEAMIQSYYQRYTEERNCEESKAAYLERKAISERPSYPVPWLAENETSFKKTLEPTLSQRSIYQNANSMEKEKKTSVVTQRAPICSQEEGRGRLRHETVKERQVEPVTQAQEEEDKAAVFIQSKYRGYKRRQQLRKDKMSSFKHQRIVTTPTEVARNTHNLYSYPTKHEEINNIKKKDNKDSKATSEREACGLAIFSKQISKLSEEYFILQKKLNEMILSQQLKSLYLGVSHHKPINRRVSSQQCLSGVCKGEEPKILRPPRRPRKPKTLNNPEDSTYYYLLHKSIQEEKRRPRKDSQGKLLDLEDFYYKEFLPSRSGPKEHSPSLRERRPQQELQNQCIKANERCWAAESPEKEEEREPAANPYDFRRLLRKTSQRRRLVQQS
Chain of UniProt Q86Y07 (whole entry, looked up): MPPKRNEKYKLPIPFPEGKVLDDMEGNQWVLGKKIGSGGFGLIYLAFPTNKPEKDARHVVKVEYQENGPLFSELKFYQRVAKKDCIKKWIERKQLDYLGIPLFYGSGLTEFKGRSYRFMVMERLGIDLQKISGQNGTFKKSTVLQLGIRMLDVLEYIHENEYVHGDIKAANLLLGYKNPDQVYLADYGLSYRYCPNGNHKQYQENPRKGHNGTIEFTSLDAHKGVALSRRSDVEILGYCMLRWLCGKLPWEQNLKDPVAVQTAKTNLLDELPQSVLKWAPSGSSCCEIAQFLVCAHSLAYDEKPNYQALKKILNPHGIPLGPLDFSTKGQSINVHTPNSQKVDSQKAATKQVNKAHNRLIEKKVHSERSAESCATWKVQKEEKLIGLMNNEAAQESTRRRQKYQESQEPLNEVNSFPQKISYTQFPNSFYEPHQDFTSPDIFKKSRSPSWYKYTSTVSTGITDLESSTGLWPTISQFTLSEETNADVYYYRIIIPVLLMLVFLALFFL
Chain of UniProt Q9Y2H1 (whole entry, looked up): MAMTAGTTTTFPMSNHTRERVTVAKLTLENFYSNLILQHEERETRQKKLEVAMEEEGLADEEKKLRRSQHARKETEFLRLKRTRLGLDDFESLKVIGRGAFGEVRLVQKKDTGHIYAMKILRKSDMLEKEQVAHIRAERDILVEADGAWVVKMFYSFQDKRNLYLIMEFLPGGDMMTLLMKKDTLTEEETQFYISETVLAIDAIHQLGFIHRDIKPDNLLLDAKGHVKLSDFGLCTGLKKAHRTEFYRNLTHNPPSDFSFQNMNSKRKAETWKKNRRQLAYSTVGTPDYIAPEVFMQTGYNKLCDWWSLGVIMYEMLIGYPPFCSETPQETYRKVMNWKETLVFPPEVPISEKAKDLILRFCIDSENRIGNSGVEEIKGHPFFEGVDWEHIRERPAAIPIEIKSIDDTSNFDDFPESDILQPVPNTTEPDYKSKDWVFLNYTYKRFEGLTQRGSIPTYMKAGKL
Chain of UniProt Q8WU08 (whole entry, looked up): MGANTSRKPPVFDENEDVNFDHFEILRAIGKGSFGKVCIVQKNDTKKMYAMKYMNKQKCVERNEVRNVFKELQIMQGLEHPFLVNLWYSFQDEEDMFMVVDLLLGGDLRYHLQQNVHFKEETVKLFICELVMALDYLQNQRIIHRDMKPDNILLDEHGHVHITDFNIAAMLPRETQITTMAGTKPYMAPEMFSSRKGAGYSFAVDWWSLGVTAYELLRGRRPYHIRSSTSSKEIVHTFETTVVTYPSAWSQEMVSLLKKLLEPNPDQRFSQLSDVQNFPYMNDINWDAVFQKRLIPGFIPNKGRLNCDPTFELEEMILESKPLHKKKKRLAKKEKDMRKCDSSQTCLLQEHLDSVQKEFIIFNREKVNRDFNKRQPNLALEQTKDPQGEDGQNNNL

Study 1
SMILES: CC(=O)N[C@@H](Cc1c[nH]c2ccccc12)C(=O)N[C@@H](CCC(=O)C=[N+]=[N-])C(=O)OC(C)C
Quantity: tumour volume
mouse, EL4 tumour; subcutaneous, 0.1 mg/kg, day 10: 635 mm3 and 335 mm3 and 586 mm3 and 621 mm3 and 1330 mm3 and 558 mm3
C57BL/6 CES1-/- mouse, EL4 tumour; intravenous, 1 mg/kg DON equivalent, treatment day 15, 5 days per week: 110 mm3 and 113 mm3 and 0 mm3 and 80.9 mm3 and 179 mm3 and 230 mm3 and 84.2 mm3
mice, MC-38 tumour rechallenge; 1 mg/kg, day 67 after injection: 0 mm3
mice, MC-38 tumour rechallenge; 1 mg/kg, day 8 after injection: 31.8 mm3 and 0 mm3 and 35 mm3
mice, MC-38 tumour rechallenge; 0.26 mg/kg, day 50 after injection: 0 mm3
mice, MC-38 tumour rechallenge; 1 mg/kg, day 64 after injection: 0 mm3
mice, MC-38 tumour rechallenge; 0.26 mg/kg, day 32 after injection: 0 mm3
mice, MC-38 tumour rechallenge; 1 mg/kg, day 46 after injection: 0 mm3
mice, MC-38 tumour rechallenge; 1 mg/kg, day 60 after injection: 0 mm3

Study 2
Target: Bromodomain-containing protein 4, BD1 (BRD4, Homo sapiens, UniProt O60885)
Effect on: acetyl-histone H4 peptide binding
Technique: AlphaScreen displacement
Tested at: 50 µM
Quantity: inhibition
CN(C)c1ncnc2nc[nH]c12: 2.05%
Cc1cc(O)nc(SCC(=O)Nc2nnc(SCC(N)=O)s2)n1: 10.7%
CC(=O)Nc1ccc(Nc2nc(-c3c(C)nc4ccccn34)cs2)cc1: 37.4%
O=C(O)Cc1csc(NC(=O)c2ccc(Br)cc2)n1: 22.2%
O=C(O)c1cc(NCc2cc(O)ccc2O)ccc1O: 16.1%
C=C(C)Cn1c(SCCC(=O)O)nc2c1c(=O)[nH]c(=O)n2C: -1.35%
CCOc1ccccc1C(=O)Nc1ccc2[nH]ncc2c1: 2.25%
Nc1cccc(-c2cc3c(Oc4cccc(O)c4)ncnc3[nH]2)c1: 13.9%
N#CC(=Cc1ccccn1)c1nc2ccccc2s1: -7.55%

Study 3
Compound: CO[C@H]1CC[C@H](CNc2ccc(S(=O)(=O)NC(=O)c3ccc(N4CCN(CC5=C(c6ccc(Cl)cc6)CC(C)(C)CC5)CC4)cc3Oc3cnc4[nH]ccc4c3)cc2[N+](=O)[O-])CC1
Tested at: 1 µM
Quantity: remaining binding
MAPKAPK5 (Homo sapiens, UniProt Q8IW41); cell-free assay, competition with immobilised ligand: 82%
FLT3 (Homo sapiens, UniProt P36888, ITD); cell-free assay, competition with immobilised ligand: 86%
RIOK3 (Homo sapiens, UniProt O14730); cell-free assay, competition with immobilised ligand: 100%
NEK6 (Homo sapiens, UniProt Q9HC98); cell-free assay, competition with immobilised ligand: 89%
EIF2AK2 (Homo sapiens, UniProt P19525); cell-free assay, competition with immobilised ligand: 90%
SIK1 (Homo sapiens, UniProt P57059); competition binding: 90%
Tyrosine-protein kinase ABL1, phosphorylated (ABL1, Homo sapiens, UniProt P00519); cell-free assay, competition with immobilised ligand: 71%
STK38L (Homo sapiens, UniProt Q9Y2H1); cell-free assay, competition with immobilised ligand: 94%
VRK2 (Homo sapiens, UniProt Q86Y07); cell-free assay, competition with immobilised ligand: 71%
MAP2K6 (Homo sapiens, UniProt P52564); cell-free assay, competition with immobilised ligand: 84%
Myosin-IIIa (MYO3A, Homo sapiens, UniProt Q8NEV4); binding, competition with immobilised ligand: 82%
KDR (Homo sapiens, UniProt P35968); cell-free assay, competition with immobilised ligand: 100%
Cyclin-dependent kinase 4, with cyclin D3 (CDK4, Homo sapiens, UniProt P11802); cell-free assay, competition with immobilised ligand: 100%
Ribosomal protein S6 kinase alpha-3, C-terminal kinase domain (RPS6KA3, Homo sapiens, UniProt P51812); cell-free assay, competition with immobilised ligand: 100%
STK32A (Homo sapiens, UniProt Q8WU08); cell-free assay, competition with immobilised ligand: 99%

Further values, each from its own experiment
CC(C)n1cnc(-c2ccc(F)cc2)c1-c1ncc(C(=O)Nc2ccc(N3CCN(C)CC3)cc2)[nH]1
Anaemia incidence (IPF patients; 60 mg once daily, adverse event): 0%

Excerpt of the above (study 2):
CN(C)c1ncnc2nc[nH]c12: 2.05%
Cc1cc(O)nc(SCC(=O)Nc2nnc(SCC(N)=O)s2)n1: 10.7%
CC(=O)Nc1ccc(Nc2nc(-c3c(C)nc4ccccn34)cs2)cc1: 37.4%
O=C(O)Cc1csc(NC(=O)c2ccc(Br)cc2)n1: 22.2%
O=C(O)c1cc(NCc2cc(O)ccc2O)ccc1O: 16.1%
C=C(C)Cn1c(SCCC(=O)O)nc2c1c(=O)[nH]c(=O)n2C: -1.35%
